# Experimental data gathered from unrelated publications.
# ± marks the error that the study gave.
Compound,tested on,test,test system,conditions,how to read,endpoint,result
CC[C@H](C)[C@H](NC(=O)[C@H](CCCCN)NC(=O)[C@H](CCCCN)NC(=O)[C@H](CC(C)C)NC(=O)[C@H](CCCCN)NC(=O)[C@H](CCC(=O)O)NC(=O)[C@H](CCCCN)NC(=O)[C@@H](NC(=O)[C@H](CCCCN)NC(=O)[C@H](CC(N)=O)NC(=O)[C@H](CCCNC(=N)N)NC(=O)[C@H](Cc1ccccc1)NC(=O)[C@H](CCCCN)NC(=O)[C@H](CCCNC(=N)N)NC(=O)[C@H](CC(C)C)NC(=O)[C@H](CCCNC(=N)N)NC(=O)[C@H](CCCCN)NC(=O)[C@H](CCCNC(=N)N)NC(=O)[C@H](CC(C)C)NC(=O)[C@@H](N)CC(C)C)[C@@H](C)CC)C(=O)NCC(=O)N[C@@H](CCC(N)=O)C(=O)N[C@@H](CCCCN)C(=O)N[C@H](C(=O)N[C@@H](CCC(N)=O)C(=O)NCC(=O)N[C@@H](Cc1ccccc1)C(=O)N[C@H](C(=O)N1CCC[C@H]1C(=O)N[C@@H](CCCCN)C(=O)N[C@@H](CC(C)C)C(=O)N[C@H](C(=O)N1CCC[C@H]1C(=O)N[C@@H](CCCNC(=N)N)C(=O)N[C@H](C(=O)N[C@@H](CCC(=O)O)C(=O)N[C@@H](CO)C(=O)O)[C@@H](C)O)C(C)C)C(C)C)[C@@H](C)CC,Bacillus megaterium,inhibition zone,CGMCC 1.046,,,lethal concentration,1.64 µM
O=P(O)(OCc1cccc2ccccc12)Oc1c2c(c(OP(=O)(O)OCc3cccc4ccccc34)c3c1C1CC3c3cc4c(cc31)C1CC4c3ccccc31)C1CC2c2cc3c(cc21)C1CC3c2ccccc21,measles virus,"viral infection, flow cytometry","A549, vaccine strain GFP","2 days, virus pre-incubated 30 min 37 °C",,IC50,3 µM
CC[C@H](C)[C@H](NC(=O)[C@H](CCCCN)NC(=O)[C@H](CCCCN)NC(=O)[C@H](CC(C)C)NC(=O)[C@H](CCCCN)NC(=O)[C@H](CCC(=O)O)NC(=O)[C@H](CCCCN)NC(=O)[C@@H](NC(=O)[C@H](CCCCN)NC(=O)[C@H](CC(N)=O)NC(=O)[C@H](CCCNC(=N)N)NC(=O)[C@H](Cc1ccccc1)NC(=O)[C@H](CCCCN)NC(=O)[C@H](CCCNC(=N)N)NC(=O)[C@H](CC(C)C)NC(=O)[C@H](CCCNC(=N)N)NC(=O)[C@H](CCCCN)NC(=O)[C@H](CCCNC(=N)N)NC(=O)[C@H](CC(C)C)NC(=O)[C@@H](N)CCCNC(=N)N)[C@@H](C)CC)C(=O)NCC(=O)N[C@@H](CCC(N)=O)C(=O)N[C@@H](CCCCN)C(=O)N[C@H](C(=O)N[C@@H](CCC(N)=O)C(=O)NCC(=O)N[C@@H](Cc1ccccc1)C(=O)N[C@H](C(=O)N1CCC[C@H]1C(=O)N[C@@H](CCCCN)C(=O)N[C@@H](CC(C)C)C(=O)N[C@@H](CCC(N)=O)C(=O)N1CCC[C@H]1C(=O)N[C@@H](CO)C(=O)N[C@@H](CCCCN)C(=O)N[C@@H](CCC(N)=O)C(=O)N[C@@H](CO)C(=O)O)C(C)C)[C@@H](C)CC,Micrococcus luteus,inhibition zone,CGMCC 1.029,,,lethal concentration,1.5 µM
CC(=O)OC1C(C)C(OC2CC3OCOC3C(C)O2)C=COC2(C)Oc3c(C)c(O)c4c(c3C2=O)C(=O)C=C(NC(=O)C(C)=CC=CC(C(C)OC(=O)C(C)(C)CC(=O)O)C(O)C(C)C(O)C1C)C4=O (stereo not shown),Bacillus subtilis,,rifampicin-resistant rpoB H482R,concentration not given,,growth inhibition,inhibited
Nc1ccn(C[C@@H](CO)OCP(=O)(O)OCCCS(=O)(=O)CCCCCCCCCCCCCC2CCC2)c(=O)n1,human adenovirus 5,cytopathic effect,Adenoid 75,,baseline: CC50 over EC50,selectivity index,74
N=C(N)NCCC[C@H](NC(=O)[C@H](Cc1c[nH]c2ccccc12)NC(=O)[C@H](CCCNC(=N)N)NC(=O)[C@H](CCCNC(=N)N)NC(=O)[C@@H]1CCCN1C(=O)[C@H](CCCCN)NC(=O)[C@@H](N)CCCNC(=N)N)C(=O)N[C@@H](Cc1c[nH]c2ccccc12)C(=O)N[C@@H](Cc1c[nH]c2ccccc12)C(=O)N1CCC[C@H]1C(=O)N[C@@H](CCCCN)C(=O)N[C@@H](CCCNC(=N)N)C(=O)N1CCC[C@H]1C(=O)O,Staphylococcus aureus,"ELISA, refers to: IL-1β","09057, BALB/c mice, sepsis model","intraperitoneal, 20 mg/kg, 12 h",baseline: saline,serum cytokine level,decreased
CCC(=O)N(C)c1ccc(Cl)c(Cl)c1,Salmonella typhimurium,Ames test,TA100,"0.10 mg/plate, with rat liver S9",,revertants,78 ± 13.1 revertants/plate
CC(C)C(C(=O)N[C@@H](Cc1ccccc1)[C@H](O)CN1CCN(Cc2ccc(Br)cc2)CC1)N1C(=O)c2ccccc2C1=O (stereo partly shown),Plasmodium berghei,,"NK-65, mouse","subcutaneous, 100 mg/kg, four days",,mean survival time,20 days
C[C@@H](NC(=O)[C@@H](CCC(N)=O)NC(=O)[C@@H](C)NC(=O)[C@@H](CCCCN)NC(=O)[C@@H](CCC(N)=O)NC(=O)[C@@H](C)NC(=O)[C@@H](CCCCN)NC(=O)[C@@H](CCC(N)=O)NC(=O)[C@@H](C)NC(=O)[C@@H](CCC(N)=O)NC(=O)[C@@H](CCCCN)NC(=O)[C@@H](C)NC(=O)[C@@H](CCC(N)=O)NC(=O)[C@@H](CCCCN)NC(=O)[C@@H](C)NC(=O)[C@@H](CCC(N)=O)NC(=O)[C@@H](C)NC(=O)[C@@H](CCCCN)NC(=O)[C@@H](CCC(N)=O)NC(=O)[C@@H](C)NC(=O)[C@@H](CCCCN)NC(=O)[C@@H](CO)NC(=O)[C@@H](Cc1ccc(O)cc1)NC(=O)CNC(=O)CNC(=O)CN)C(=O)N[C@H](CCCCN)C(=O)N[C@H](CCC(N)=O)C(=O)N[C@H](C)C(=O)N[C@H](CCCCN)C(=O)N[C@H](CCC(N)=O)C(=O)O,,"binding, SPR two-state model",rVλ6Wil fibrils,"300 nM, pH 7.4",,ka1,550000 M⁻¹ s⁻¹
COc1cc(C(=O)NCCOCCOCCOCCNC(=O)c2ccc([18F])nc2)ccc1NC(=O)C1NC(CC(C)(C)C)C(C#N)(c2ccc(Cl)cc2F)C1c1cccc(Cl)c1F (stereo not shown),SJSA-1 tumour model,,"host not given, stomach","2 h, tumour-bearing",,tracer uptake,0.49 %ID/g
CN[C@@H]1[C@H](O)[C@H](NC)[C@H]2O[C@]3(O)[C@H](O[C@@H]2[C@H]1O)O[C@H](C)C[C@@]3(O)CNCc1ccc(F)cc1,Neisseria gonorrhoeae,,ATCC 49226,40 µg per disc,,inhibition zone diameter,16 to 19 mm
CC[C@H](C)[C@H](NC(=O)[C@H](CCCCN)NC(=O)[C@H](CCCCN)NC(=O)[C@H](CC(C)C)NC(=O)[C@H](CCCCN)NC(=O)[C@H](CCC(=O)O)NC(=O)[C@H](CCCCN)NC(=O)[C@@H](NC(=O)[C@H](CCCCN)NC(=O)[C@H](CC(N)=O)NC(=O)[C@H](CCCNC(=N)N)NC(=O)[C@H](Cc1ccccc1)NC(=O)[C@H](CCCCN)NC(=O)[C@H](CCCNC(=N)N)NC(=O)[C@H](CC(C)C)NC(=O)[C@H](CCCNC(=N)N)NC(=O)[C@H](CCCCN)NC(=O)[C@H](CCCNC(=N)N)NC(=O)[C@H](CC(C)C)NC(=O)CN)[C@@H](C)CC)C(=O)NCC(=O)N[C@@H](CCC(N)=O)C(=O)N[C@@H](CCCCN)C(=O)N[C@H](C(=O)N[C@@H](CCC(N)=O)C(=O)NCC(=O)N[C@@H](Cc1ccccc1)C(=O)N[C@H](C(=O)N1CCC[C@H]1C(=O)N[C@@H](CCCCN)C(=O)N[C@@H](CC(C)C)C(=O)N[C@@H](C)C(=O)N1CCC[C@H]1C(=O)N[C@@H](CCCNC(=N)N)C(=O)N[C@H](C(=O)N[C@@H](CC(=O)O)C(=O)N[C@@H](Cc1ccc(O)cc1)C(=O)O)[C@@H](C)O)C(C)C)[C@@H](C)CC,Bacillus subtilis,inhibition zone,CGMCC 1.243,,,lethal concentration,1.1 µM
CC[C@H](C)[C@H](NC(=O)[C@@H](NC(=O)[C@H](CC(=O)O)NC(C)=O)[C@@H](C)O)C(=O)N[C@@H](CCCNC(=N)N)C(=O)N[C@@H](CC(C)C)C(=O)N[C@@H](CC(C)C)C(=O)N[C@@H](Cc1ccccc1)C(=O)N[C@@H](CCC(N)=O)C(=O)N[C@@H](CC(C)C)C(=O)N[C@@H](CCSC)C(=O)N[C@@H](CCCNC(=N)N)C(=O)N1CCC[C@H]1C(=O)N1CCC[C@H]1C(=O)N[C@@H](CC(N)=O)C(=O)N[C@@H](CCSC)C(=O)N[C@H](C(=O)N1CCC[C@H]1C(=O)N[C@@H](C)C(=O)N[C@H](C(=O)N[C@@H](CC(N)=O)C(=O)N[C@@H](C)C(N)=O)C(C)C)[C@@H](C)O,,refers to: HA-23 tetramer,"tetramer+ CD4 T cells, PBMC, healthy adults, HLA-DRB1*0101","dose not given, CD62L−CD45RA+/− or CD62L+CD45RA−",,antigen-experienced T cells,87%
CN(C)CC1CCCCC1(O)c1cccc(O)c1 (stereo not shown),P-glycoprotein,,Caco-2 TC7,"10 µM, 3 h, pH 7.4, with: cyclosporin A 10 µM",,efflux ratio,1.1
CN[C@](C)(C[18F])C(=O)O,SK-OV-3 tumour model,,"host not given, tumour","2 h, tumour-bearing",,tracer uptake,13 %ID/g
CC(C)C[C@H](NC(=O)[C@H](CC(=O)O)NC(=O)[C@H](CC(C)C)NC(=O)[C@H](CC(=O)O)NC(=O)CNC(=O)[C@@H]1CCCN1C(=O)[C@H](CCCCN)NC(=O)[C@H](CC(C)C)NC(=O)[C@H](Cc1c[nH]c2ccccc12)NC(=O)[C@@H]1CCCN1)C(=O)O,dengue virus 2,,"LLC-MK2, New Guinea C","maximal non-toxic, 24 h",baseline: untreated,E protein reduction,59.1 ± 11.2%
CCCCCCCCC(=O)NCc1ccc(O)c(OC)c1,mouse mAb 1-F12,"antibody binding, indirect competitive ELISA",,with: coating antigen 6-OVA,,IC50,0.439 µg/mL
C[C@@](O)(C(F)F)[C@H](NC(=O)c1ccc(C#CC#CC2CC2)cc1)C(=O)NO,Citrobacter koseri,agar dilution,clinical isolates,,,MIC90,0.125 µg/mL
CC(C)=C1CC[C@]23CO[C@H](C2)[C@@](O)(C(=O)O)CC[C@@H]13,Arabidopsis thaliana,,"wild type, MS agar",100 µM,,growth inhibition,inhibited
CCCCc1ccc(-c2nc(C)c(C(C)=NNC(=N)N)s2)cc1,Staphylococcus aureus,,NRS107 MRSA,,,MBC,2.6 µg/mL
CCOC(=O)/C=C/[C@H](C[C@@H]1CCNC1=O)NC(=O)[C@@H]1[C@@H]2[C@H](CN1C(=O)[C@@H](NC(=O)C(F)(F)F)C(C)(C)C)C2(C)C,Human coronavirus 229E,viral replication,MRC5,,baseline: compound over nirmatrelvir,EC50 ratio,6 fold
CC=CCCCCOP(=O)(O)Oc1c2c(c(OP(=O)(O)OCCCCC=CC)c3c1C1CC3c3cc4c(cc31)C1CC4c3ccccc31)C1CC2c2cc3c(cc21)C1CC3c2ccccc21,measles virus,"viral infection, flow cytometry","A549, vaccine strain GFP","2 days, virus pre-incubated 30 min 37 °C",,IC50,5.1 µM
